Results collected from several papers.
Every numbered part comes from another study and shows a few of its results, in no order.
Chain of UniProt Q9Y261 (142-269, looked up): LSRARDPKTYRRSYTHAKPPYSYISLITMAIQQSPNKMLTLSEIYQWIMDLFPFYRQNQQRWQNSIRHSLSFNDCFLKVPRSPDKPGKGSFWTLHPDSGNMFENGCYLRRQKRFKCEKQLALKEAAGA

Sample 1
Target: Ras GTPase-activating protein-binding protein 1, RRM domain (G3BP1, Homo sapiens, UniProt Q13283)
Chain of UniProt Q13283 (whole entry, looked up): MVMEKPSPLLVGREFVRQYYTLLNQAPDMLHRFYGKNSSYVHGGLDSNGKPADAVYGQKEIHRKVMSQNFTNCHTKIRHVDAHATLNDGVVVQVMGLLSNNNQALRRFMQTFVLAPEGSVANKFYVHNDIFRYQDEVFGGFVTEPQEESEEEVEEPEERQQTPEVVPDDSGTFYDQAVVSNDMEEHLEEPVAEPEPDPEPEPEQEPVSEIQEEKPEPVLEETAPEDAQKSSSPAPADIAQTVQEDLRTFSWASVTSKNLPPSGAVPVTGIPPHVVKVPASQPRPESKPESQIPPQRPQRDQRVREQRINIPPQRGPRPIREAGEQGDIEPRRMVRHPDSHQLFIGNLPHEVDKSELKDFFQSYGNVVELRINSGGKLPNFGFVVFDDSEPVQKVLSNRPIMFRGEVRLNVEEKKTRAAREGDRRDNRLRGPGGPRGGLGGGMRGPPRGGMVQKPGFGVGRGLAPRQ
Technique: RNA Bind-n-Seq
Molecule type: RNA
Sample: in vitro
Tested at: 1 µM
Notes: whole 134-nt RNA, ends assumed
With: 150 mM KCl
Reference: input library
Reading: higher = stronger binding
Quantity: log2 enrichment
GGGAGUUCUACAGUCCGACGAUCAAGUCCUGUGCUACACAUCGUAUGUACCGAAUCGGGAAAAAAAGGGAAAGGGAGGGAAAGUAUUAUGUUACGCCGUUCGGAUCUGCACUUUGGAAUUCUCGGGUGUCAAGG: 0.836
GGGAGUUCUACAGUCCGACGAUCUAACUUUAGAGGAGGAUCUGAUGGAUAUGGCAGUGGACGUGGAUUUGGGGAUGGCUAUAAUGGGUAUGGAGGAGCACCUGGAGGUGGCAAUGGAAUUCUCGGGUGUCAAGG: -0.323
GGGAGUUCUACAGUCCGACGAUCUUCCCUCUGUUUUAUUUUUCCCCCGUGUGUCCCUACUAUGGUCAGAAAGCCUGUUGUGUCCACCAUCUCCAAAGGAGGUUACCUGCAGGGUGGAAUUCUCGGGUGUCAAGG: -0.468
GGGAGUUCUACAGUCCGACGAUCUAACUUUAGAGGAGGAUCUGAUGGAUAUGGCAGUGGACGUGGAUUUGGGGAUGGCUAUAAUGGGUAUGGAGGAGGACCUGGAGGGGGCAAUGGAAUUCUCGGGUGUCAAGG: -0.415

Sample 2
Target: Histone acetyltransferase KAT6A, both winged helices, GST fusion (KAT6A, Homo sapiens, UniProt Q92794, residues 1-181)
Technique: protein binding microarray
Molecule type: double-stranded DNA, one strand shown
Sample: in vitro
Tested at: not given
Notes: 8-mer, flanks averaged, mean of 2 arrays, mostly near background
Reference: not given
Reading: higher = stronger binding
Quantity: E-score
Construct (chain): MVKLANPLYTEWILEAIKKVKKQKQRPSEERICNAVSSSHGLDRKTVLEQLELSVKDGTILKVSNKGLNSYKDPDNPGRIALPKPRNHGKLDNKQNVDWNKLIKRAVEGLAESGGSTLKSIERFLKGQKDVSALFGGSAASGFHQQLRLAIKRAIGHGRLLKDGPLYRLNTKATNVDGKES
ACGGCTCC: 0.215
TACATGCA: 0.00197
TCTCTCCA: -0.144

Other studies, line by line
PhoQ, residues 284 288 289 292 302 303 NLMGRA
fold induction (PhoP, residues 12 14 15 18 19 IQSYL (Escherichia coli, UniProt P23836); Sort-seq, measured: YFP reporter; E. coli; PhoQ-PhoP variant library, with: 10 µM Mg2+; reference: high Mg2+ state, higher = stronger signaling): 15.8

ACTATAAG
E-score (Hepatocyte nuclear factor 3-beta, forkhead domain (FOXA2, Homo sapiens, UniProt Q9Y261, residues 142-269); protein-binding microarray; double-stranded DNA, one strand shown, in vitro; not given, k-mer, scored over probes, only values ≥0.25; higher = stronger binding): 0.262

Excerpt of the above (sample 2):
ACGGCTCC: 0.215
